Results of several laboratories.
Each line is one published result; not all experiments were run side by side. ± marks the error that the study gave.

`COCCOCCOCCOCCC(=O)NCc1cc(CNC(=O)CCOCCOCCOCCOC)cc(-c2cc3cc4nc(c(-c5ccc(CCC(=O)O)cc5)c5[nH]c(cc6nc(c(OC)c2[nH]3)CC6(C)C)cc5-c2cc(CNC(=O)CCOCCOCCOCCOC)cc(CNC(=O)CCOCCOCCOCCOC)c2)CC4(C)C)c1`: “fluorescence quantum yield reduction” 39% (water; concentration not given; reference: DMF).
`COc1cc(OC)cc(C2=C3C(C)=C(I)C(/C=C/c4cccs4)=[N+]3[B-](F)(F)n3c(/C=C/c4cccs4)c(I)c(C)c32)c1` — result for “fluorescence quantum yield”: 0.02 (dichloromethane; reference: methylene blue).
Under “fluorescence lifetime τ1”, `O=c1[nH]c(=O)n(C2OC(CO)C(O)C2O)cc1-n1nnc2c1CCC1C(CO)C1CC2` (mixture of isomers) is recorded as 0.3 ns (frequency-domain fluorometry; methanol).
For `COc1ccc(/C=C/c2ccc(-c3ccc(C)cn3)nc2)cc1`, “fluorescence quantum yield” read 0.28 (MeCN; with: quinine bisulfate reference).
`Nc1ncnc2c1nc(-n1nnc3c1CCC1C(CO)C1CC3)n2C1OC(CO)C(O)C1O` (mixture of isomers) — result for “fluorescence lifetime τ3”: 5.9 ns (frequency-domain fluorometry; methanol).
`COc1cc(OC)cc(C2=C3C(C)=C(I)C(C)=[N+]3[B-](F)(F)n3c(/C=C/c4c[nH]c5ccc([N+](=O)[O-])cc45)c(I)c(C)c32)c1` — result for “fluorescence quantum yield”: 0.32 (THF; reference: methylene blue).
For `CN1CCC(C)(C)c2cc3c(-c4ccc(C(=S)N5CCCCC5)s4)c4ccc(=[N+](C)C)cc-4sc3cc21`, “fluorescence emission maximum” read 626 nm (methanol; with: excitation 532 nm).
For `NCCC(=O)N1Cc2ccccc2-c2c(nnn2-c2nc(N)c3ncn(C4OC(CO)C(O)C4O)c3n2)-c2ccccc21` (mixture of isomers), “fluorescence lifetime τ1” read 0.1 ns (frequency-domain fluorometry; methanol).
The fluorescence lifetime of `CC1=CC(C)=[N+]2C1=C(CCCC(=O)NCCCCCC(=O)NCCCC[C@H](NC(=O)N[C@@H](CCC(=O)O)C(=O)O)C(=O)O)c1c(C)cc(C)n1[B-]2(F)F` is reported as 6.1 ± 0.1 ns (acetonitrile/water).
`COc1cc(OC)cc(C2=C3C(C)=C(I)C(/C=C/c4c[nH]c5ccc([N+](=O)[O-])cc45)=[N+]3[B-](F)(F)n3c(/C=C/c4c[nH]c5ccc([N+](=O)[O-])cc45)c(I)c(C)c32)c1`: “fluorescence quantum yield” 0.02 (dichloromethane; reference: methylene blue).
Under “fluorescence lifetime τ3”, `Nc1nc(-n2nnc3c2CCC2C(CO)C2CC3)nc2c1ncn2C1OC(CO)C(O)C1O` (mixture of isomers) is recorded as 5.8 ns (frequency-domain fluorometry; methanol).
`COc1cc(OC)cc(C2=C3C(C)=C(I)C(C)=[N+]3[B-](F)(F)n3c(/C=C/c4c[nH]c5ccccc45)c(I)c(C)c32)c1` — result for “fluorescence quantum yield”: 0.17 (DMSO; reference: methylene blue).
`Cc1ccc(-c2ccc(-c3cc4sccc4o3)cn2)nc1` has a fluorescence lifetime of 0.92 ns (TCSPC; CHCl3).
